Results from different studies.
Each numbered part is a random draw from the data of one study; scales do not carry over between parts. Positions count from the first letter of the parent shown.

Block 1
Target: Histone acetyltransferase KAT6A, both winged helices, GST fusion (KAT6A, Homo sapiens, UniProt Q92794, residues 1-181)
Technique: protein binding microarray
Molecule type: double-stranded DNA, one strand shown
Sample: in vitro
Concentration: not given
Notes: 8-mer, flanks averaged, mean of 2 arrays, mostly near background
Reference: not given
Direction: higher = stronger binding
Residues (chain): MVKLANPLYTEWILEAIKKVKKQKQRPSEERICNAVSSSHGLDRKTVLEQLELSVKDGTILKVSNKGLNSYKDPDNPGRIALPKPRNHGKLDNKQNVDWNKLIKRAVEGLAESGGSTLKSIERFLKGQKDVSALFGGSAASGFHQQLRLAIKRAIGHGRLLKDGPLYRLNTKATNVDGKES
| Sequence | E-score |
| --- | --- |
| CCTCTACG | -0.0448 |
| ATTACGTG | -0.119 |
| AGCATGGG | -0.126 |
| AAAAAACC | -0.0529 |
| ATCTACGC | 0.199 |
| GCCGTTCA | 0.195 |
| CCCCACCG | 0.0598 |
| ACGCACAT | 0.0765 |
| ACCTGTGC | -0.0689 |
| CGGAGCCA | 0.0423 |
| CGGACGCC | 0.284 |
| AAAGGCAC | 0.023 |
| TTGCAAAA | -0.219 |
| CCCCCCCG | -0.0518 |
| CCTTTCGA | -0.0338 |
| ACTCGGAT | 0.108 |
| ATATCATG | -0.0523 |

Block 2
Target: ABI1, truncated, D143A, DHFR fusion (Arabidopsis thaliana)
Technique: DHFR PCA, deep sequencing
Sample: yeast
Notes: methotrexate growth selection, single substitutions
Together with: (+)-ABA 1.4 µM
Reference: wild-type fitted maximum
Direction: higher = stronger binding
Starting sequence: PYL1, truncated, DHFR fusion (Arabidopsis thaliana); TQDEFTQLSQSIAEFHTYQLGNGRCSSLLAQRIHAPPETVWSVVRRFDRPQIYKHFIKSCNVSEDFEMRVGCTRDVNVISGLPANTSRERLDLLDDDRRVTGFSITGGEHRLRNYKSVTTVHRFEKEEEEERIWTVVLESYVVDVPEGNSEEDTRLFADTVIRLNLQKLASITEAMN; partner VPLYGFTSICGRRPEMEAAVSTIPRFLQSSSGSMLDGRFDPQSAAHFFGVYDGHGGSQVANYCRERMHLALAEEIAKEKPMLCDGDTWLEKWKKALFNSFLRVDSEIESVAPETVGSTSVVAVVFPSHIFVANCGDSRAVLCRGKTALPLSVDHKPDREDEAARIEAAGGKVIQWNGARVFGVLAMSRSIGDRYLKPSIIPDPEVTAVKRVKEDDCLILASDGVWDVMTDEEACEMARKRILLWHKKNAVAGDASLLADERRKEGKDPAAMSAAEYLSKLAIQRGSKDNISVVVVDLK
| Change | relative binding score [%] |
| --- | --- |
| K116D | -10.8 |
| L164S | 51.8 |
| L156E | 12.3 |
| T154N | -40 |
| E125I | 66.9 |
| V145C | 8.33 |
| L28E | 3.16 |
| Q10M | 59.9 |
| L112F | 27.5 |
| Q19T | 63 |
| S80W | 33.2 |

Block 3
Target: CCNB2, cyclin fold, Cln2 fusion (human)
Technique: yeast growth competition, sequencing
Sample: yeast
Notes: weak parent motif
Reference: not given
Direction: higher = stronger binding
Starting sequence: MASTL docking peptide (human); PMIAKNLMCELDE; partner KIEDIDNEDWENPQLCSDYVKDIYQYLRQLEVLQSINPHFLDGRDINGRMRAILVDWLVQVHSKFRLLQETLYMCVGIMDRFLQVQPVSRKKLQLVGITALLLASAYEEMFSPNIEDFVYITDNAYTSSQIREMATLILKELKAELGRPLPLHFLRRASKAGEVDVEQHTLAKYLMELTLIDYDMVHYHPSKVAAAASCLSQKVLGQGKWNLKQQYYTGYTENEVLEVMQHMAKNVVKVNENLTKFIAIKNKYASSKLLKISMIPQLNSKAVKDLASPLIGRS
| Change | normalised enrichment score |
| --- | --- |
| PMHAKNLMCELDE [I3H] | -0.129 |
| PMIAKRLMCELDE [N6R] | 0.45 |
| PSIAKNLMCELDE [M2S] | 1.58 |
| PMFAKNLMCELDE [I3F] | -0.16 |
| PNIAKNLMCELDE [M2N] | 1.16 |
| PMIATNLMCELDE [K5T] | -0.00566 |
| PMIAKNLMCEHDE [L11H] | 0.168 |
| PRIAKNLMCELDE [M2R] | 1.14 |
| PMIAKNLECELDE [M8E] | 0.428 |
| PMIAKNLKCELDE [M8K] | -0.149 |
| PMIAENLMCELDE [K5E] | -0.262 |
| PMIAKNLMCENDE [L11N] | -0.114 |
| PMIAKNLMRELDE [C9R] | 0.964 |
| PMIAKNLMCMLDE [E10M] | 0.341 |
| PMWAKNLMCELDE [I3W] | 0.0918 |
| PMIAKNLMCHLDE [E10H] | 0.101 |
| PMIARNLMCELDE [K5R] | 1.55 |

Block 4
Target: DBP, bZIP domain (human)
Technique: DHFR protein complementation
Sample: yeast
Notes: single substitutions, most at no-binding floor
Reference: wild-type JUN-FOS pair
Direction: higher = stronger binding
Starting sequence: JUN, bZIP domain (human); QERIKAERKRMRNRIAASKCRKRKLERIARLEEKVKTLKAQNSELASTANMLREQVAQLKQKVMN; partner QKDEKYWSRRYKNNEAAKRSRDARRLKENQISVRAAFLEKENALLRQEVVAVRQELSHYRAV
| Change | binding fitness [natural log] |
| --- | --- |
| T48F | -1.29 |
| A40Y | -1.23 |
| K36C | -1.3 |
| T48E | -1.49 |
| N42L | -1.41 |
| L45G | -1.49 |
| V56T | -1.47 |
| A46Q | -1.41 |
| L31A | -1.47 |
| Q41D | -1.49 |
| A46M | -1.27 |
| A57L | -1.45 |
| V35G | -1.52 |
| I28Q | -1.47 |
| R53Y | -1.49 |

Block 5
Target: Centromere-binding protein 1, full length, N-terminal tag (CBF1, Saccharomyces cerevisiae, UniProt P17106, residues 1-351)
UniProt P17106, sequence (whole entry, looked up): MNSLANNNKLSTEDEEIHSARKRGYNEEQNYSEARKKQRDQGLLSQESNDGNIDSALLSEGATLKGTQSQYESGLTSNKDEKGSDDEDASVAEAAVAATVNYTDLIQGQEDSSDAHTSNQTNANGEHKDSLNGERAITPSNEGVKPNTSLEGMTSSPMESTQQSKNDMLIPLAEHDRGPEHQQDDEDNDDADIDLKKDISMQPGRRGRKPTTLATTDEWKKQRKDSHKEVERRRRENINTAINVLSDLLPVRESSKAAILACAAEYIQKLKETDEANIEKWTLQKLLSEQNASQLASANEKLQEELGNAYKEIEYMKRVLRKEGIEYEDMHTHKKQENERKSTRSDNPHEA
Technique: protein-binding microarray
Molecule type: double-stranded DNA, one strand shown
Sample: in vitro
Concentration: 0.8 µM
Notes: whole 60-bp probe, no competitor
Direction: higher = stronger binding
Constant ends, left off below: … GTCTTGATTCGCTTGACGCTGCTG
| Sequence | fluorescence intensity |
| --- | --- |
| GAATACAGGTGTTATGGCACGTGCGAATAAGGGTAG | 10400 a.u. |
| GAAATGCTAAAATATGGCGTGACCGTAATAACATAG | 1780 a.u. |
| GAATCACGACCCGCGGGTGAGCCCACACTCACCTAG | 503 a.u. |
| GAATATTGATGTCCTGACGTGGTGTACAAACTATAG | 588 a.u. |
| CTATAGATAAATTATCATCACCTTTTTTACACTTTC | 543 a.u. |
| GAAATTTTGGCAAATTCACTCACGTGAGGGCGTTAG | 11800 a.u. |
| CTATCTTTAATCTTTCATATGATGAAATAATAGTTC | 591 a.u. |
| CTAGCGGACAAAATTACCGTCACGTTCAAAAGTTTC | 1680 a.u. |
| GAATATAAAATATACCATGTGGTTTGAGTTGTGTAG | 848 a.u. |
| CTAACTACGCCAACGTGATTGGCAATTGTGCTCTTC | 1460 a.u. |
| TGTACGAAGCTATAAGACGTGTATATAGTAGTTAGG | 536 a.u. |
| CCTAACTACTATATCCACGTGGAATAGCTTCGTACA | 3710 a.u. |
| CTAAGCTAAGTAACCAACGTGGTGCCATATTCATTC | 590 a.u. |
| CTAGGGTTGAACGAACGTCACATGTGTACGGATTTC | 3690 a.u. |
| GAAACTGTCACGATTGACCTGATGCAAAGGAAATAG | 822 a.u. |
| GAACGATTTTTGTCACCTGCAAACTCTTCTTGTTAG | 924 a.u. |

Block 6
Target: Hepatocyte nuclear factor 3-alpha (Foxa1, Mus musculus, UniProt P35582, residues 1-468, full length assumed)
UniProt P35582, sequence (whole entry, looked up): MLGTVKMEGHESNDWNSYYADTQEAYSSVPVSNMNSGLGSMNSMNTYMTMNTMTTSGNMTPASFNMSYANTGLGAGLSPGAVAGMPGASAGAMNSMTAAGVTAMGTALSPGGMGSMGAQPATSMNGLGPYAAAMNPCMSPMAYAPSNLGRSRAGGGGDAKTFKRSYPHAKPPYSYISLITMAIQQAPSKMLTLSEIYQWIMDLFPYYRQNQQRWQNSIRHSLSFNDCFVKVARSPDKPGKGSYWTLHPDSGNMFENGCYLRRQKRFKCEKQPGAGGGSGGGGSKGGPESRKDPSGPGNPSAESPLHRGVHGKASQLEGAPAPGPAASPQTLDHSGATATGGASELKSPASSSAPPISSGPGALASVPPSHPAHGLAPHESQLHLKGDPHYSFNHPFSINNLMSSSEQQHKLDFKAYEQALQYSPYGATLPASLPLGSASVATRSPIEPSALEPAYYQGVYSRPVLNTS
Technique: EMSA with sequencing
Molecule type: double-stranded DNA, one strand shown
Sample: in vitro
Concentration: 10 and 20 nM
Notes: whole designed probe, mean of two concentrations, ends assumed
Reference: negative control set to 0
Direction: higher = stronger binding
| Sequence | normalised bound fraction |
| --- | --- |
| GTGAGCGGTGCCCATTGATGGGGAACTATTTAATCTAGGCTACTGTGAATAGGAGAAAAATAGTTGCTAAAAGATGGCAGAGTTCACTCAATCCAATGAAATTTTAAAACATCTCAAAGTAAACAAAGCCAGAGAGTTCATCAGCTAATGCTGCGTCATAAGGTTATCTGCATATTAGGTGATCCCAGTGGCTACAGAACTGACTTTCAGAAACACTAGTTTCACTGGGATCGTGGGGAC | 0.476 ratio |
| GTGAGCGGTGCCCATTGATGGGGAACCCCTCATCCTGGGTGTCGGGGTGGGAGGTGTTCTCATCATGAATGGGAGGCGTACCCAGATCGTGACTCACCATTTTTTAACCAAACCAGAGTGTAAACAAATGGCTGTGTGTCACACCATAATCGACATAGCAAGATATGATACATGCCAGGAGAGAAAAAGAAAGTGCTGATGGAAAAATAATCTCATTAGTTTCACTGGGATCGTGGGGAC | 0.315 ratio |
| GTGAGCGGTGCCCATTGATGGGGAACATGATCCTCCCTTTCTTCAGCTGTCCAATGGGTTAATCATCCCAAGTCCCCCAGCCTTGATGACAATCCAGGGGGCTGGGGTATATCTGCCATTGTTTGCCTTTCCCTTGCTTCTCTCTGAGTGATTGGCAGACAGCAGGCCTCTGAATGCCATCCTCCCCAGCATTCTTGGCAAGGCGGCTGAAACTCCAGCTTTCACTGGGATCGTGGGGAC | 0.287 ratio |

Block 7
Target: RNA binding protein fox-1 homolog 2, RRM domain, GST-SBP tag (RBFOX2, Homo sapiens, UniProt O43251-10, residues 100-194)
Technique: RNA Bind-n-Seq
Molecule type: RNA
Sample: in vitro
Concentration: 365 nM
Notes: natural RNA segment, single round, ends assumed
Reference: no-protein control
Direction: higher = stronger binding
Constant ends, left off below: GGGAGUUCUACAGUCCGACGAUC … UGGAAUUCUCGGGUGCCAA
Target sequence (chain): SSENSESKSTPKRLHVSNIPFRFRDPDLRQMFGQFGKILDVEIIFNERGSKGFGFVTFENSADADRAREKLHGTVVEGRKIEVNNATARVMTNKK
| Sequence | RBNS enrichment (R) |
| --- | --- |
| GCACCCCUCUGGUUCUCAGCAAACUCAGACAAGGCAGUGCCACCAGGCCUGUCAGCAAAGCACCUUCCUCUGCCCACAGCCAGUCAGAGAAAACGAUCCAAAGGAGGGCA | 0.366 |
| CACUGAGAUCCAGAGAGGCUGGAUGACUUGCUCAAGUUCACCAGCAUGGUAGUGGCAAAGAGAGGUCCAGAGUCCUGGCCCUUGAUGCCCAGCUCAGUGCCACAAAGCUC | 1.85 |
| AACACCAGCUGCUAUCAAGCAAGCUUAUAUCAUGUAAAUUAUAUGAAUUAGGAGAUGUUUUGGUAAUUAUUUCAUAUAUUGUUGUUUAUUGAGAAAAGGUUGUAGGAUGU | 0.706 |
| AUAUUUUUCCAGAAAAUUUUUAUACAGUGUCAUUUAAUUGGGGAAAGGAUACUGUCAAAAAAUUAAUGCAUACUUUUGUCACAAUUUACCUUUUUGUGGGUGUGUUUUUG | 1.41 |
| UCUAAUGACGGAUAAUUCCUUAACAUUUCUCUCCACCUUAGUACUUUAGGCUAAUUAUACACGUCUGUCUGUGCCAUGAGUAAGUGGACUGUAGUUGGACCAAAAAAACA | 0.516 |
| GGUGGCAAAGGUAUAAUGUAUCCGUGUUUUGUUUGUGAAUUUUUUAUUGAACCCACCCACUCAGAUGCUAAGUCAACCCUGACCUCUGCCCCAUCCACACCAUUCUCCAU | 0.66 |
| GCACAAGUUCAGAAGACACAGAGGGUGUCUUCUCACACACCACACUGUGACGAGGAACUGCCAUUGCAGGGUCAAUCACCAGGCACUUGCACAUGUAGAAACCUGUAGAC | 0.524 |
| AAAACCAGUAAUUCAUUUACUCUUGCCCAAAACUAUACACUGUAUUUCUGUUAUAGUAACAAAAUAGAGUUAUGUAGAAUUGUAUGGAACUCAAAUUUAAACCAUGCUUU | 0.327 |
| CGUGGCCCUGCAUUUCUGGGUAGGGCUGGCAAUGGUUGCCUUAACCCUGGCUCCUGGCCCGAGCCUGGGGCUCCCUGGGCCCUGCCCCACCCACCUUAUCCUCCCACCCC | 0.393 |
| GCUGGAGGAGGAAAGCGUGAGGACGGGGAUGAUUUUGAUCACGAUUCCAUUUAUUGCCUUUACAUAAGGUUGAGGGAAGGGGAAGGUUUGGUUUGUUUGUCUUUUAAUUG | 0.686 |
| UUGUCCAGGGUGAAGCUGUGGGAGAACCGCCUGGGCUACCAGUCAGAGCUGGUCUUUGGGCUGUGUUCCUUGCCCAGGUUUCUGCAUCUUGCACUUUGACAUUCCCAGGA | 0.623 |
| UAGCCUUGGCCCGAAGACAGAAAAUUCUCUCUGCCCUGCUGUAUCAUAAAGCACACACUUAGUGCCCUGGAGCAAGUCCAUGACUCCACAUGACCUUGGAAGCUUUCUUC | 0.428 |

For quick reference, copied from above (block 2):
| Change | relative binding score [%] |
| --- | --- |
| Q10M | 59.9 |
| E125I | 66.9 |
| K116D | -10.8 |
| S80W | 33.2 |
| L112F | 27.5 |
| L28E | 3.16 |
| Q19T | 63 |
| V145C | 8.33 |
| L156E | 12.3 |
| T154N | -40 |
| L164S | 51.8 |
